Assay results of several laboratories.
Each line is one published result; not all experiments were run side by side.
Spike glycoprotein: Spike glycoprotein (Severe acute respiratory syndrome coronavirus 2, UniProt P0DTC2)
Spike glycoprotein RBD: Spike glycoprotein, RBD (Severe acute respiratory syndrome coronavirus 2, UniProt P0DTC2)

| SMILES | target or system | test | test system | conditions | measurement | value |
| --- | --- | --- | --- | --- | --- | --- |
| CC(C)C[C@H](NC(=O)[C@H](CC(=O)O)NC(=O)[C@H](CCC(=O)O)NC(=O)[C@H](C)NC(=O)[C@H](CCC(=O)O)NC(=O)[C@H](Cc1c[nH]cn1)NC(=O)[C@H](CC(N)=O)NC(=O)[C@H](Cc1ccccc1)NC(=O)[C@H](CCCCN)NC(=O)[C@H](CC(=O)O)NC(=O)[C@@H](N)CC(C)C)C(=O)O | Spike glycoprotein | binding | – | – | Kd | 35.2 nM |
| CCCCCCCCCCCCCCCC(=O)N[C@@H](CCC(=O)NCCOCCOCCC(=O)NCCOCCOCCC(=O)NCCCC[C@H](NC(=O)[C@H](CC(=O)O)NC(=O)[C@H](CC(C)C)NC(=O)[C@H](Cc1ccc(O)cc1)NC(=O)[C@H](CCCCN)NC(=O)[C@H](CO)NC(=O)[C@H](Cc1ccc(O)cc1)NC(=O)[C@H](CC(=O)O)NC(=O)[C@H](CO)NC(=O)[C@@H](NC(=O)[C@H](Cc1ccccc1)NC(=O)[C@@H](NC(=O)CNC(=O)[C@H](CCC(N)=O)NC(=O)[C@@H](CO)NC(=O)[C@@H](N)Cc1c[nH]cn1)[C@@H](C)O)[C@@H](C)O)C(=O)N[C@@H](CCCNC(=N)N)C(=O)N[C@@H](CCCNC(=N)N)C(=O)N[C@@H](C)C(=O)N[C@@H](CCC(N)=O)C(=O)N[C@@H](CC(=O)O)C(=O)N[C@@H](Cc1ccccc1)C(=O)N[C@H](C(=O)N[C@@H](CCC(N)=O)C(=O)N[C@@H](Cc1c[nH]c2ccccc12)C(=O)N[C@@H](CC(C)C)C(=O)N[C@@H](CC(C)C)C(=O)N[C@@H](CC(N)=O)C(=O)N[C@H](C(=O)NCC(=O)NCC(=O)N1CCC[C@H]1C(=O)N[C@@H](CO)C(=O)N[C@@H](CO)C(=O)NCC(=O)N[C@@H](C)C(=O)N1CCC[C@H]1C(=O)N1CCC[C@H]1C(=O)N1CCC[C@H]1C(=O)N[C@@H](CO)C(N)=O)[C@@H](C)O)C(C)C)C(=O)O | – | – | rhesus monkey, plasma | subcutaneous, 60 µg/kg, single dose | MRT | 5.7 h |
| CC[C@H](C)[C@H](NC(=O)[C@H](CCC(=O)O)NC(=O)[C@H](CC(=O)O)NC(=O)[C@H](CO)NC(=O)[C@@H](NC(=O)[C@H](CCCNC(=N)N)NC(=O)[C@H](CCSC)NC(=O)[C@H](CO)NC(=O)[C@H](C)NC(=O)[C@H](CCC(=O)O)NC(=O)C(C)(C)NC(=O)[C@H](CC(=O)O)NC(=O)[C@@H](C)NC(=O)[C@H](CC(C)C)NC(=O)[C@H](CCC(=O)O)NC(=O)[C@H](CC(=O)O)NC(=O)[C@H](CC(C)C)NC(=O)[C@H](CC(C)C)NC(=O)[C@H](CCCNC(=N)N)NC(=O)[C@H](CCSC)NC(=O)[C@H](CCC(=O)O)NC(=O)[C@H](CCC(=O)O)NC(=O)[C@H](Cc1ccc(O)cc1)NC(=O)[C@@H](NC(=O)[C@H](CCCCN)NC(=O)[C@H](CCC(N)=O)NC(=O)[C@H](CC(C)C)NC(=O)[C@@H](NC(=O)[C@H](Cc1c[nH]c2ccccc12)NC(=O)[C@H](CCC(=O)O)NC(=O)[C@H](CCCCN)NC(=O)[C@@H](N)CC(=O)O)[C@@H](C)CC)[C@@H](C)CC)C(C)C)C(=O)N[C@@H](Cc1ccc(O)cc1)C(=O)N[C@@H](CCC(=O)O)C(=O)N[C@@H](Cc1ccccc1)C(=O)N[C@@H](CCSC)C(=O)N[C@@H](CCCCN)C(=O)N[C@@H](CCCCN)C(N)=O | Spike glycoprotein | binding, SPR | – | – | Kd | 0.47 nM |
| C=C1C(=O)OC2C1CCC(=C)C1CC(OC3OC(CO)C(O)C(OC4OC(CO)C(O)C(O)C4O)C3O)C(=C)C12 (centres unmarked) | Spike glycoprotein | binding | – | – | Kd | 3560 nM |
| O=c1cc(-c2cc(O)c(O)c(S(=O)(=O)O)c2)oc2cc(O)c(S(=O)(=O)O)c(O)c12 | Spike glycoprotein | binding | – | – | Kd | 8370 nM |
| O=C(C=Cc1ccc(O)c(O)c1)OC1CC(O)(C(=O)O)CC(OC(=O)C=Cc2ccc(O)c(O)c2)C1O (centres unmarked) | Spike glycoprotein | binding, BLI | – | – | Kd | 1480 nM |
| C[C@@H]1O[C@@H](O[C@H]2[C@H](O)[C@@H](O)[C@H](OC[C@H]3O[C@@H](O[C@H]4CC[C@@]5(C)[C@@H](CC[C@]6(C)[C@@H]5C=C[C@]57OC[C@@]8(CCC(C)(C)C[C@H]85)[C@@H](O)C[C@]76C)[C@]4(C)CO)[C@H](O)[C@@H](O)[C@@H]3O)O[C@@H]2CO)[C@H](O)[C@H](O)[C@H]1O | Spike glycoprotein, S1 subunit (Severe acute respiratory syndrome coronavirus 2, UniProt P0DTC2) | binding | – | – | Kd | 6650 nM |
| CC(C)C[C@H](NC(=O)[C@H](Cc1c[nH]c2ccccc12)NC(=O)[C@H](CCCNC(=N)N)NC(=O)[C@H]1CCC[C@@H]1NC(=O)[C@H](CCC(=O)O)NC(=O)[C@H](CC(=O)O)NC(=O)[C@H](CC(=O)O)NC(=O)[C@@H](N)CCCNC(=N)N)C(=O)N[C@H]1CCC[C@@H]1C(=O)N[C@H](C(=O)N[C@@H](CC(=O)O)C(=O)N[C@H]1CCC[C@@H]1C(=O)N[C@H](C(=O)N[C@@H](Cc1ccc(O)cc1)C(=O)N[C@@H](CCC(=O)O)C(=O)N[C@H]1CCC[C@@H]1C(=O)N[C@@H](Cc1c[nH]c2ccccc12)C(=O)N[C@@H](Cc1c[nH]cn1)C(N)=O)C(C)C)[C@@H](C)O | Spike glycoprotein RBD | – | – | – | Kd | 1100 nM |
| CC[C@H](C)[C@H](NC(=O)[C@H](Cc1c[nH]c2ccccc12)NC(=O)[C@H](Cc1ccccc1)NC(=O)[C@@H](N)CC(N)=O)C(=O)N[C@@H](CO)C(=O)N1CCC[C@H]1C(=O)N[C@@H](CCCCN)C(=O)N[C@@H](CC(C)C)C(=O)N[C@@H](C)C(=O)N[C@@H](Cc1ccccc1)C(=O)N[C@@H](C)C(=O)N[C@@H](CC(C)C)C(=O)NCC(=O)NCC(=O)NCC(=O)N[C@@H](CO)C(=O)O | Spike glycoprotein, S2 subunit (Severe acute respiratory syndrome coronavirus 2, UniProt P0DTC2) | binding | – | – | Kd | 561000 nM |
| CC(C)C[C@H](NC(=O)[C@H](Cc1c[nH]c2ccccc12)NC(=O)[C@H](CCCNC(=N)N)NC(=O)[C@H]1CCC[C@@H]1NC(=O)[C@H](CCC(=O)O)NC(=O)[C@H](CC(=O)O)NC(=O)[C@H](CC(=O)O)NC(=O)[C@@H](N)CCCNC(=N)N)C(=O)N[C@H]1CCC[C@@H]1C(=O)N[C@H](C(=O)N[C@@H](CC(=O)O)C(=O)N[C@H]1CCC[C@@H]1C(=O)N[C@H](C(=O)N[C@@H](Cc1ccc(O)cc1)C(=O)N[C@@H](CCCC(=O)O)C(=O)N[C@H]1CCC[C@@H]1C(=O)N[C@@H](Cc1c[nH]c2ccccc12)C(=O)N[C@@H](Cc1c[nH]cn1)C(N)=O)C(C)C)[C@@H](C)O | Spike glycoprotein RBD | – | – | – | Kd | 6500 nM |
| CC[C@H](C)[C@H](NC(=O)[C@H](CCCCNC(=O)CN(CCNC(=O)CN(CCNC(=O)CN(CCNC(=O)CN(CCNC(=O)CN(CCNC(=O)[C@H](CCCNC(=N)N)NC(C)=O)C(=O)Cn1cc(C)c(=O)[nH]c1=O)C(=O)Cn1ccc(N)nc1=O)C(=O)Cn1cnc2c(=O)[nH]c(N)nc21)C(=O)Cn1cnc2c(=O)[nH]c(N)nc21)C(=O)Cn1ccc(N)nc1=O)NC(=O)[C@H](CC(=O)O)NC(=O)[C@H](CO)NC(=O)[C@@H](NC(=O)[C@H](CCCNC(=N)N)NC(=O)[C@H](CCSC)NC(=O)[C@H](CO)NC(=O)[C@H](C)NC(=O)[C@H](CCC(=O)O)NC(=O)[C@H](C)NC(=O)[C@H](Cc1c[nH]cn1)NC(=O)CNC(=O)[C@H](CC(C)C)NC(=O)[C@H](CCC(=O)O)NC(=O)[C@H](CC(=O)O)NC(=O)[C@H](CC(C)C)NC(=O)[C@H](CC(C)C)NC(=O)[C@H](CCCNC(=N)N)NC(=O)[C@H](CCSC)NC(=O)[C@H](CCCC(=O)NCCN(CC(=O)NCCN(CC(=O)NCCN(CC(=O)NCCN(CC(=O)N[C@@H](CCCNC(=N)N)C(N)=O)C(=O)Cn1cnc2c(=O)[nH]c(N)nc21)C(=O)Cn1ccc(N)nc1=O)C(=O)Cn1ccc(N)nc1=O)C(=O)Cn1cnc2c(=O)[nH]c(N)nc21)NC(=O)[C@H](CCC(=O)O)NC(=O)[C@H](Cc1ccc(O)cc1)NC(=O)[C@@H](NC(=O)[C@H](CCCCN)NC(=O)[C@H](CCC(N)=O)NC(=O)[C@H](CC1CCC1)NC(=O)[C@@H](NC(=O)[C@H](Cc1c[nH]c2ccccc12)NC(=O)[C@H](CCC(=O)O)NC(=O)[C@H](CCCCN)NC(=O)[C@H](CC(=O)O)NC(C)=O)[C@@H](C)CC)[C@@H](C)CC)C(C)C)C(=O)N[C@@H](Cc1ccc(O)cc1)C(=O)N[C@@H](CCC(=O)O)C(=O)N[C@@H](Cc1ccccc1)C(=O)N[C@@H](CCSC)C(=O)N[C@@H](CCCCN)C(=O)N[C@@H](CCCCN)C(N)=O | Spike glycoprotein | binding, SPR | – | – | Kd | 0.12 nM |

Some of these lines once more:
| SMILES | target or system | test | test system | conditions | measurement | value |
| --- | --- | --- | --- | --- | --- | --- |
| CC(C)C[C@H](NC(=O)[C@H](Cc1c[nH]c2ccccc12)NC(=O)[C@H](CCCNC(=N)N)NC(=O)[C@H]1CCC[C@@H]1NC(=O)[C@H](CCC(=O)O)NC(=O)[C@H](CC(=O)O)NC(=O)[C@H](CC(=O)O)NC(=O)[C@@H](N)CCCNC(=N)N)C(=O)N[C@H]1CCC[C@@H]1C(=O)N[C@H](C(=O)N[C@@H](CC(=O)O)C(=O)N[C@H]1CCC[C@@H]1C(=O)N[C@H](C(=O)N[C@@H](Cc1ccc(O)cc1)C(=O)N[C@@H](CCC(=O)O)C(=O)N[C@H]1CCC[C@@H]1C(=O)N[C@@H](Cc1c[nH]c2ccccc12)C(=O)N[C@@H](Cc1c[nH]cn1)C(N)=O)C(C)C)[C@@H](C)O | Spike glycoprotein RBD | – | – | – | Kd | 1100 nM |
